Published values from different studies.
Numbered parts are unrelated; each lists some results of a single study.

Series 1
Target: Histone acetyltransferase KAT6A, both winged helices, GST fusion (KAT6A, Homo sapiens, UniProt Q92794, residues 1-181)
Technique: protein binding microarray
Molecule type: double-stranded DNA, one strand shown
Sample: in vitro
Tested at: not given
Setting: 8-mer, flanks averaged, mean of 2 arrays, mostly near background
Relative to: not given
Reading: higher = stronger binding
Construct (chain): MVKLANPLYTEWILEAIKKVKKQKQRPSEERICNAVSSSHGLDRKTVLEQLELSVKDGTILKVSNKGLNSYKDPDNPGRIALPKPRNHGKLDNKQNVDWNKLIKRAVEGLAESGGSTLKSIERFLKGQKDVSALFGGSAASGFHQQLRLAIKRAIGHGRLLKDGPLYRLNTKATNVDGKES
Strand	E-score
CTCCGGTA	0.165
GCTAAGAC	0.012
CAAGGTCA	-0.138
ATGTCTTG	-0.0103

Series 2
Target: Centromere-binding protein 1, full length, His-tagged (CBF1, Saccharomyces cerevisiae, UniProt P17106, residues 1-351)
UniProt P17106, sequence (whole entry, looked up): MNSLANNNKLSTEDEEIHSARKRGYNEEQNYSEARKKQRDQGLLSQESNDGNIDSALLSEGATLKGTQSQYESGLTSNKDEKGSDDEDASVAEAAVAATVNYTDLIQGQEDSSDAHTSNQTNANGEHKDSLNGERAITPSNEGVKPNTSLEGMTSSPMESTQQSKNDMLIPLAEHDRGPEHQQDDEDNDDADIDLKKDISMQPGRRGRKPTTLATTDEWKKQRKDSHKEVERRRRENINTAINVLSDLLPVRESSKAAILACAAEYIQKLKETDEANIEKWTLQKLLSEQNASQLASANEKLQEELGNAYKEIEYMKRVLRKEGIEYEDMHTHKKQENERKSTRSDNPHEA
Technique: competition protein-binding microarray
Molecule type: double-stranded DNA, one strand shown
Sample: in vitro
Tested at: 2 µM
Setting: whole 60-bp probe, lowest competitor level
Together with: Pho4 competitor, 0.05 µM
Reading: higher = stronger binding
Strand	fluorescence intensity [a.u.]
AAAGCGGTAATTTTTCACGTGGCGTCAAATATCTATGTCTTGATTCGCTTGACGCTGCTG	1070
ATTCTTGGTACTTTAGTCGTGATTGTTTGACATGCCGTCTTGATTCGCTTGACGCTGCTG	103
AAAGGCACCAAGATTCACCTGACGAAAGGCTCCCCCGTCTTGATTCGCTTGACGCTGCTG	119
AAATTACTAAGTTGTGAAGTGGGTGACGCCGTATGAGTCTTGATTCGCTTGACGCTGCTG	71.2

Series 3
Target: Interferon regulatory factor 3, full length, phosphomimetic (IRF3, Homo sapiens, UniProt Q14653, residues 1-427, S386D/S396D/S398D/S402D/T404D/S405D)
Technique: protein-binding microarray
Molecule type: double-stranded DNA, one strand shown
Sample: in vitro
Tested at: 2540 nM top
Setting: 60-bp whole probe
Together with: salmon DNA 0.4 mg/ml
Relative to: random background probes
Reading: higher = stronger binding
Target sequence (chain): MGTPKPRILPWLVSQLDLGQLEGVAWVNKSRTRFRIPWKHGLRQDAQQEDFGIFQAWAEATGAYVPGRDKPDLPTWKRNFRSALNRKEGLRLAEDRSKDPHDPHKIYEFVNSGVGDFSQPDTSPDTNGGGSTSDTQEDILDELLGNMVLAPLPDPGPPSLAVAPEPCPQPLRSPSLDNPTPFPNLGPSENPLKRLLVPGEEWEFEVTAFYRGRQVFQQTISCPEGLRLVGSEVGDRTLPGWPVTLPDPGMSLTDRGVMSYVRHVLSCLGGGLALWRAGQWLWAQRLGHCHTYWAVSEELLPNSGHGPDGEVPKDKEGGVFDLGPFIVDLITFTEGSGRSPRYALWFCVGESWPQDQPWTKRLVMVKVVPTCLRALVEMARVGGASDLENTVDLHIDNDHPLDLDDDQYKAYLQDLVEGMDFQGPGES
Strand	fitted relative affinity [z-score]
GCCTAGCACGACGGTTTCCTTATCCGGACGTGCTAGGTCTTGATTCGCTTGACGCTGCTG	8.67
GCCTAGCACTTAGATTTCGGGACTTGATTAGTGCTAGTCTTGATTCGCTTGACGCTGCTG	1.09
GCCTAGCACGACGATATCAGTATCGAAACGTGCTAGGTCTTGATTCGCTTGACGCTGCTG	1.91

Single results of other studies
Substance	target	test	system	setting	how to read	endpoint	value
PhoQ, residues 284 288 289 292 302 303 TYGVAM	PhoP, residues 12 14 15 18 19 SPWRL (Escherichia coli, UniProt P23836)	Sort-seq, measured: YFP reporter	E. coli	PhoQ-PhoP variant library, together with: 10 µM Mg2+	relative to: high Mg2+ state, higher = stronger signaling	fold induction	11.5

Some of these lines once more (series 2):
Strand	fluorescence intensity [a.u.]
ATTCTTGGTACTTTAGTCGTGATTGTTTGACATGCCGTCTTGATTCGCTTGACGCTGCTG	103
AAAGGCACCAAGATTCACCTGACGAAAGGCTCCCCCGTCTTGATTCGCTTGACGCTGCTG	119
